# Assay results collected from several papers.
# Parts stem from different laboratories: compare values within a part only. Positions count from the first letter of the parent shown.

# Study 1
# Target: CCNB2, cyclin fold, Cln2 fusion (human)
# Method: yeast growth competition, sequencing
# Sample: yeast
# Notes: weak parent motif
# Reference: not given
# Direction: higher = stronger binding
# Starting sequence: PKN2 docking peptide (human); VSAVQKLDFSDTM; partner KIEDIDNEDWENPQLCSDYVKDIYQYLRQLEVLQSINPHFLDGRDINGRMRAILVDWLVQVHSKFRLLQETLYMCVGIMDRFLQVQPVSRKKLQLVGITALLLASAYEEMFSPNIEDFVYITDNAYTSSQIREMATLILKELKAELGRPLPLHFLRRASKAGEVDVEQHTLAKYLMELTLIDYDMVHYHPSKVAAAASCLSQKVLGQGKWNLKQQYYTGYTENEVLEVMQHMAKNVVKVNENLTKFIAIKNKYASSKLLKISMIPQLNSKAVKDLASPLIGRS
Substitution,normalised enrichment score
VNAVQKLDFSDTM [S2N],-0.157
VSAVQKLDFNDTM [S10N],-0.423
VSAVQKHDFSDTM [L7H],-0.0261

# Study 2
# Target: RNA binding protein fox-1 homolog 2, RRM domain, GST-SBP tag (RBFOX2, Homo sapiens, UniProt O43251-10, residues 100-194)
# Method: RNA Bind-n-Seq
# Molecule type: RNA
# Sample: in vitro
# Tested at: 365 nM
# Notes: natural RNA segment, single round, ends assumed
# Reference: no-protein control
# Direction: higher = stronger binding
# Residues (chain): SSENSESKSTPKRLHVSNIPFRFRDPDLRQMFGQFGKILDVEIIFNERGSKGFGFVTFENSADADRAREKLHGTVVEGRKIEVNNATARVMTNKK
Strand,RBNS enrichment (R)
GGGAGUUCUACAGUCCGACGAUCGCAGCCUCUCCUUGUCAUUCUCCCACCCCACAUCCCAUUUUUUAAAGCCCUUUUGGUAAAAACCAACAGGUUGUGGCCGCAGACCUCAGAUGGACCCGGCCCAUCCCUGGUGGAAUUCUCGGGUGCCAA,0.528
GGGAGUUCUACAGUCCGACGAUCUCCUCCAUUCUGUGAACUUCCCUGGUGAGAGAAGAAGGAGGACUGGGCAUGAACUGAGGAUUGUAUUGAAGACUGUGGUUUUUAAGCCUCGCUGUAAAGAAAGGCCAUGCUGGAAUUCUCGGGUGCCAA,1.03
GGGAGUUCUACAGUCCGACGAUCCACAGGACAGCACUGCUUCCAUGCUUCAUACAUCAGGAAAUGAGGCCAGAACUUGAGUAUUUACUAACACGUUUUUCAAAAGAUGUCAGUGUUAUACCUAAAGCUAAAAAUGGAAUUCUCGGGUGCCAA,0.277
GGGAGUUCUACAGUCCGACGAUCUGAUAAAAAAAAUUGAUUAAAUUUAUUUCAUCUCAUAUAUAGAAGUACUUUAUUACCUGGAAACAUUCUUAAUAGAGAUUCAUUAGAAAACCCAAAUCUAAUGUUCAUGUUGGAAUUCUCGGGUGCCAA,0.665
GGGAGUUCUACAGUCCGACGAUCUCCCAGAAUGGUGUAAAUACUUCUUUUCAAUGUUGUGACCAAGUAUUGUCACUCAGCCAACAACUUUUCCACACCUGGGGGUUGGUGGCUGUUCUUACUGUCCAAAUGAAUGGAAUUCUCGGGUGCCAA,0.267
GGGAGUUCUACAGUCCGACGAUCGCCCCACGCUGCUGCUAACGACAGUAUGAUGCUUACUCUGCUACUCGGAAACUAUUUUUAUGUAAUUAAUGUAUGCUUUCUUGUUUAUAAAUGCCUGAUUUAAAAAGAAAUGGAAUUCUCGGGUGCCAA,12.1
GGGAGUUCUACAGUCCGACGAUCGGGUUCAUUUAUCUUUUAAGGAGUUUUACUUUUCUCUCCAGAGGGACCAGGUCUUCUUAUGCAGUGACAAGAGUGCGUAGUGUUUUCUUUGCAUACUGUUCAUCGCAGUAUGGAAUUCUCGGGUGCCAA,0.255
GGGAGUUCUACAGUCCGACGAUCAUGCUGGUCUUUCCGACCUGGUGCUCUUCUGCUGGGGGACUGAGGCUGGCCCUCAUUCGGGGUCGGGAACCAAGGGUGUGUCUGCUCUUUCCCUCCCCAUCCUCUGGCAGUGGAAUUCUCGGGUGCCAA,0.225

# Study 3
# Target: RING finger protein unkempt homolog, zinc fingers 1-6, GST-SBP tag (UNK, Homo sapiens, UniProt Q9C0B0, residues 30-357)
# Method: RNA Bind-n-Seq
# Molecule type: RNA
# Sample: in vitro
# Tested at: not given
# Notes: RNA with constant flanks, ends assumed
# Reference: input RNA pool
# Direction: higher = stronger binding
# Target sequence (chain): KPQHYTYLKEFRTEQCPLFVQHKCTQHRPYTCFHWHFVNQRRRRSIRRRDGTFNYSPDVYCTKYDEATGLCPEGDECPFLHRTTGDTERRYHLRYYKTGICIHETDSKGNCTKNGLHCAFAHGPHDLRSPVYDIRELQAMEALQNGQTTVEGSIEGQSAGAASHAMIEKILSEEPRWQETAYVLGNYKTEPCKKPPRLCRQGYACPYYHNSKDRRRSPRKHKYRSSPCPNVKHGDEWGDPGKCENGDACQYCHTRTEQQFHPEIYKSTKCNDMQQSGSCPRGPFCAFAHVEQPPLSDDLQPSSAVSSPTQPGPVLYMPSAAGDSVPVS
Strand,bound/input enrichment
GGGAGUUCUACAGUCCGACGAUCAAUGAUGUACAUUACUGUGAAUUUUUAUACCACUCAUUUUUAAAAGGGCUGUCUUUUCAUUUCCGUUUUCCAUACUGUGGUGGUGUACACAGGAUAGAACACCCUUUUUUAAAACACAGUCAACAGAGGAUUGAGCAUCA,0.216 ratio
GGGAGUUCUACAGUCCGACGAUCCCAUGUUUGCCAAAGGCAAAGGCUCGGCGGUGCCCUCGGACGGGCAGGCUCGGGAAAAGUCCGCUUUAUACGUCUACGAAUAUUUACUGCACGUAGGAGCACAGAAAUCUGCACAGACCUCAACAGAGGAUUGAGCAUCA,0.108 ratio
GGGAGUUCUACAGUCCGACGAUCCAUGGACAUCAUAAAAUGGAACUUCCAGAUUAUAGACAAUGGAAGAUAGAAGGGACACCAUCCGAAACUAUCCAGAAGAAGCUGGCUGCAAAAGGGCUAAGGGAUCCAUGGGGCCGCAAUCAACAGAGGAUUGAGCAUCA,0.852 ratio
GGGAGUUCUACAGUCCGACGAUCGACUUGGACCUUCCUGGGCUAGUGCAAAUAGCGGCAGUGGAGGCUCAAGAGGAAAGUUUGUCCGUGGAGGCAGUGGUAGAGGUCGUCAUGUACGCUCCUUUACACGAUAAAAAUCCUUUUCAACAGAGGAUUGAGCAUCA,0.0667 ratio
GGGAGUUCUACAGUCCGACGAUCGCUCUUGCCUGCAAGUUUAGCUUGUGUUAAGGCAUUUGGGGGGACCAUUUAACUUACUGCCCGUUUGGGAUGUCUUUGUGAGAGUAGGGUUGGCACCAAUGCAGUAUGGAAGGCUAGGAGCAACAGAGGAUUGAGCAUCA,0.349 ratio

# Single results of other studies
Substance,target,assay,system,conditions,scale,measurement,result
"PhoQ, residues 284 288 289 292 302 303 ASSHFY","PhoP, residues 12 14 15 18 19 LWHVM (Escherichia coli, UniProt P23836)","Sort-seq, measured: YFP reporter",E. coli,"PhoQ-PhoP variant library, with: 10 µM Mg2+","reference: high Mg2+ state, higher = stronger signaling",fold induction,18.2
